Results gathered from unrelated publications.
Each line is one published result; not all experiments were run side by side. Several values in a cell are separate wells, animals, samples, runs or records. ± gives the spread as reported.
Action: inhibitor

SMILES	assay	system	conditions	IC50
O=C(O)CC[C@H](NC(=O)CNC(=O)[C@@H]1C[C@@H](O)CN1)C(=O)N[C@@H](Cc1ccccc1)C(=O)NCC(=O)O	platelet aggregation	rat platelet-rich plasma	5 min preincubation, 37 °C, added: ADP 0.1 mM	277 µM
CNC(C)C1CCC(N)C(OC2C(N)CC(N)C(OC3OCC(C)(O)C(NC)C3O)C2O)O1 (centres unmarked)	[14C]-phenylalanine incorporation, (UUU)12-directed cell-free translation	M. smegmatis 70S ribosomes, human cytosolic hybrid decoding site	60 min, 37 °C	> 500 µM
NC[C@@H]1O[C@H](O[C@H]2[C@@H](O)[C@H](O[C@@H]3[C@@H](O)[C@H](N)C[C@H](N)[C@H]3O[C@H]3O[C@H](CN)[C@@H](O)[C@H](O)[C@H]3N)O[C@@H]2CO)[C@H](N)[C@@H](O)[C@@H]1O	prokaryotic translation, luciferase reporter	Escherichia coli S30 extract		0.139 µM
CCCC[C@H]1C(=O)O[C@H](C)[C@H](NC(=O)c2cccc(NC=O)c2O)C(=O)O[C@@H](C)[C@@H]1OC(=O)CC(C)C	succinate-dependent oxygen uptake	rat liver mitochondria	added: succinate 15 mM	0.0115 µM
C=C(C)[C@@H]1CCC(C)=C[C@H]1c1c(O)cc(CCCCC)cc1O	nicotine demethylation to nornicotine	pooled human liver microsomes	added: nicotine 500 µM	0.5 ± 0.11 µM
N[C@@H](CC(=O)O)C(=O)N[C@@H](CCC(=O)O)C(=O)NCC(=O)N1CCC[C@H]1C(=O)O	platelet aggregation	rat platelet-rich plasma	5 min preincubation, 37 °C, added: ADP 0.1 mM	290 µM
CCCCCC(O)C=CC=O (centres unmarked)	vesicular dopamine uptake	rat striatal synaptic vesicles	15 min, added: [3H]dopamine	60 µM and 56 µM
NC[C@H]1O[C@H](O[C@H]2[C@H](O)[C@@H](O[C@H]3O[C@H](CO)[C@@H](O)[C@H](N)[C@H]3O)[C@H](N)C[C@@H]2N)[C@H](N)C[C@@H]1O	luciferase synthesis, coupled transcription-translation	M. smegmatis 70S ribosomes, Leishmania/Trypanosoma hybrid	60 min, 37 °C	60 µM
C[C@@H]1C[C@@H]([C@H](O)CC2CC(=O)NC(=O)C2)C(=O)[C@@H](C)C1	translation, item: firefly luciferase reporter	Krebs-2 cell lysate		~0.5 µM
NC[C@@H]1O[C@H](O[C@H]2[C@@H](O)[C@H](O[C@@H]3[C@@H](O)[C@H](N)C[C@H](N)[C@H]3O[C@H]3O[C@H](CO)[C@@H](O)[C@H](O)[C@H]3N)O[C@@H]2CO)[C@H](N)[C@@H](O)[C@@H]1O	[14C]-phenylalanine incorporation, (UUU)12-directed cell-free translation	M. smegmatis 70S ribosomes, Leishmania/Trypanosoma hybrid decoding site	60 min, 37 °C	96 µM
CCNC(=O)[C@H]1O[C@@H](n2cnc3c(N)nc(NCCc4ccc(CCC(=O)NCCN)cc4)nc32)[C@H](O)[C@@H]1O	platelet aggregation	human washed platelets	added: ADP 5 µM	0.0359 ± 0.017 µM

Excerpt of the above:
SMILES	assay	system	conditions	IC50
N[C@@H](CC(=O)O)C(=O)N[C@@H](CCC(=O)O)C(=O)NCC(=O)N1CCC[C@H]1C(=O)O	platelet aggregation	rat platelet-rich plasma	5 min preincubation, 37 °C, added: ADP 0.1 mM	290 µM
